# Measurements collected from several papers.
# Numbered parts are unrelated; each lists some results of a single study.

# Study 1
# Target: Interferon regulatory factor 5, full length, phosphomimetic (IRF5, Homo sapiens, UniProt Q13568-2, residues 1-514, S451D/S453D/S456D/S462D)
# Technique: protein-binding microarray
# Molecule type: double-stranded DNA, one strand shown
# Medium: in vitro
# Concentration: 940 nM top
# Setting: 60-bp whole probe
# Added: salmon DNA 0.4 mg/ml
# Relative to: random background probes
# Direction: higher = stronger binding
# All sequences stand within: GCCTAGCAC … GTCTTGATTCGCTTGACGCTGCTG
Strand,fitted relative affinity [z-score]
GACGGACTGCTACTGCTGAGGTGCTAG,-0.525
TTAGATCTCAGTATCGATTCGTGCTAG,4.51
TCACTTCTGGATCTCAGACTGTGCTAG,0.4
TCATTTTTCATTTTGTTACTGTGCTAG,1.73
TCATGTTTGTCCCTATTACTGTGCTAG,1.24
GACGAACTGTGGACTGGAGACGTGCTA,-0.536
GACGGTTTCGACTATCGGGACGTGCTA,8.32
GACGATCTCCTACTGCTGACGTGCTAG,0.378

# Study 2
# Target: RNA binding protein fox-1 homolog 2, RRM domain, GST-SBP tag (RBFOX2, Homo sapiens, UniProt O43251-10, residues 100-194)
# Technique: RNA Bind-n-Seq
# Molecule type: RNA
# Medium: in vitro
# Concentration: 365 nM
# Setting: natural RNA segment, single round, ends assumed
# Relative to: no-protein control
# Direction: higher = stronger binding
# Residues (chain): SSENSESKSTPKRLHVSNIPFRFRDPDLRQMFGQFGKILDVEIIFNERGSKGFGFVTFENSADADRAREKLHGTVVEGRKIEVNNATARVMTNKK
Strand,RBNS enrichment (R)
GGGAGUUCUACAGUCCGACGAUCCUUUAGGAGAAGUUAAGAGGUAUAUUCUUAAGGUGUAUUCUAUUUUGAUCUAAUUCUGUUUCUGGGGAGCAUCUUGUACUGUCACUGUUUUUGUACUAAAUCUUCAAAUAUGGAAUUCUCGGGUGCCAA,0.872
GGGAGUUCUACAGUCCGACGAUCUCACCCUAUGGCCUGAGUCCAAUCCCUAGAACUGUGGUUUCCUCCAGUGUGACUUGUCCUGAUCAGGUAGAGAGAGCUUGUGGUCAUAUUCCCCAAUGGGCAUGCCUGUGUGGAAUUCUCGGGUGCCAA,0.807
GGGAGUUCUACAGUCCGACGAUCGGUUUGGAAAUCCUUUAUUCUCUUUUCUCAAUACCAAGUGGUGCCUUACUGUGGCAGCAGUGUCACUGUCACUGAAAUAAACGUAAGCCCUACCUUCUUUCUUGUUUGAUUGGAAUUCUCGGGUGCCAA,0.424
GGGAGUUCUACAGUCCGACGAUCCAUGUGUAAAUGGAAAAUAUGUCUUACAAAUAGAGAUGCACUAAAACAACAAAAACAACAACAAAACAAACGUUUACAUCCUAGGAGGGAAAAAAAACAAAAGUCUUUGUUGGAAUUCUCGGGUGCCAA,0.446
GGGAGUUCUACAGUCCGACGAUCACAAACAAAAAAAUAAUCUCUAUGUAUGUGUUGGAUAAAGUCUACAGACUGACUAACAUGCAUUAGCAAAUGGAGCAUCAGUAGGUAGCAACAUGAUAAUUUAUGUAACUUGGAAUUCUCGGGUGCCAA,0.351
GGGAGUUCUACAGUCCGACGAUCGGGGUCUUUUACAGGUCAUGUUGGUUGCUGCUGCUUCUGUCAGGAAGUACCCUAGCUCCACGUACUCCCCGCCCCCCGCCGCCCCCUUCACAACCUUAUGUGUACAUGACUGGAAUUCUCGGGUGCCAA,0.294
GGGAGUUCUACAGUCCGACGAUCGCCCGCAUCGUGCAGACAACCUCAGUCCUCUUGUCUAUUUUCUCUUGGGUUGAGCCUGUGACUUGGUUUCUCUUUGUCCUUUUGGAAAAAUGACAAGCAUUGCAUCCCAGUGGAAUUCUCGGGUGCCAA,1.18
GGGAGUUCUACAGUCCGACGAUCCACUUUCAGGCCCUCCGGUGUGUUGCCUGGUAGGAUAACUGCUCCAAGCAGCUACCUACCUUGACUCCCAUAGCUUAGGACACAAGCCAGCUCUGAGCUACAUGAAGUAAUGGAAUUCUCGGGUGCCAA,0.265

# Study 3
# Target: Replicase polyprotein 1ab, main protease (rep, Severe acute respiratory syndrome coronavirus 2, UniProt P0DTD1)
# Effect on: enzyme activity
# Action: inhibitor
# Concentration: 20 µM
# Setting: primary screen
SMILES,inhibition
O=C(Nc1ccc2c(O)cc(S(=O)(=O)O)cc2c1)Nc1ccc2c(O)cc(S(=O)(=O)O)cc2c1,68.7%
CC1(C)C(/C=C/C=C/C=C/C=C2\N(CCCCS(=O)(=O)[O-])c3ccc4ccccc4c3C2(C)C)=[N+](CCCCS(=O)(=O)[O-])c2ccc3ccccc3c21.[Na+],65.5%
Sc1nnc(Nc2ccccc2)s1,101%

# Single results of other studies
SMILES,target or system,assay,system,setting,scale,measurement,result
CCCNC(=O)NS(=O)(=O)c1ccc(Cl)cc1,HEK-293T,"pseudovirus infection, FDA-approved drug library screen",VSV pseudotyped with SARS-CoV-2 spike,"10 µM, 16 h",relative to: vehicle-treated,GFP-positive cells,110%
C[C@@H]1C[C@H]2[C@@H]3CCC4=CC(=O)C=C[C@]4(C)[C@@]3(F)[C@@H](O)C[C@]2(C)[C@@]1(O)C(=O)CO,"Replicase polyprotein 1ab, nsp13 helicase (rep, Severe acute respiratory syndrome coronavirus 2, UniProt P0DTD1)","helicase activity, inhibitor",,20 µM,,inhibition,3.49%
NCCc1ccc(O)c(O)c1,HEK-293T,,VSV pseudotyped with SARS-CoV-2 spike,"10 µM, 16 h",,pseudovirus infection,89.7%

# Repeated from above (study 2):
Strand,RBNS enrichment (R)
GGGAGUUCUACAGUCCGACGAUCGGUUUGGAAAUCCUUUAUUCUCUUUUCUCAAUACCAAGUGGUGCCUUACUGUGGCAGCAGUGUCACUGUCACUGAAAUAAACGUAAGCCCUACCUUCUUUCUUGUUUGAUUGGAAUUCUCGGGUGCCAA,0.424
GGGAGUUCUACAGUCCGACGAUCCAUGUGUAAAUGGAAAAUAUGUCUUACAAAUAGAGAUGCACUAAAACAACAAAAACAACAACAAAACAAACGUUUACAUCCUAGGAGGGAAAAAAAACAAAAGUCUUUGUUGGAAUUCUCGGGUGCCAA,0.446
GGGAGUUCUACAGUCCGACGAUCACAAACAAAAAAAUAAUCUCUAUGUAUGUGUUGGAUAAAGUCUACAGACUGACUAACAUGCAUUAGCAAAUGGAGCAUCAGUAGGUAGCAACAUGAUAAUUUAUGUAACUUGGAAUUCUCGGGUGCCAA,0.351
